Assay results pooled from the literature.
Protocols differ between the studies behind these lines. Values joined by “and” are separate records of one study, mostly repeats; a detail may differ. Numbers after ± are the reported error.

| Compound | test | test system | conditions | how to read | measurement | result |
| --- | --- | --- | --- | --- | --- | --- |
| Cc1cc(-c2ccc(C(=O)[C@@H]3CCCC[C@H]3C(=O)Nc3cnn4c3C(=O)NCC4)cc2)[nH]n1 |  | human, urine | oral, 200 mg, 168-192 h | baseline: dose | radioactivity recovery per interval | < 0.01% and 0.02% |
| O=C1C2CC3CC1CC(C(=O)N1CCN(c4ccc([N+](=O)[O-])c5ncccc45)CC1)(C3)C2 |  | male ICR mice, plasma | intravenous, 1 mg/kg, 0.25 h |  | plasma concentration | 75.1 ng/mL |
| CC(C)(O)c1ncc([S@](N)(=O)=NC(=O)Nc2c3c(cc4c2CCC4)CCC3)s1 | refers to: musculoskeletal-connective tissue disorders | healthy human volunteers | oral, 100 mg single dose, crystalline suspension |  | subjects with TEAEs | 17% |
| C=C(NC(=O)c1csc(-c2nc3c(cc2O)-c2nc(cs2)C(=O)NC(C(C)O)C(=O)NC(=C(C)OC)c2nc(cs2)C(=O)NC2c4nc(cs4)C(=O)NC(COC(=O)c4c5c6c(cccc6n4O)COC(=O)C(OC4CC(C)(O)C(N(C)C)C(C)O4)C2OC5)c2nc-3cs2)n1)C(N)=O (stereo not shown) |  | ICR mice, Streptococcus pneumoniae ATCC 49169 infected, immunocompromised, blood | intravenous, 4 mg/kg/day twice daily |  | AUC(0-inf) | 235 ng·h/mL |
| CCN(CC)c1ccc2c(c1)O[B-]1(c3ccccc3OC)OC(=O)C(c3ccccc3)=N[N+]1=C2 (stereo not shown) |  | toluene |  |  | molar absorption coefficient | 59000 M⁻¹ cm⁻¹ |
| C=CC(=O)Nc1cc(Nc2nccc(-c3cn(C)c4ccccc34)n2)c(OC)cc1N(C)CCNC | storage stability | human dried blood spot | 10 d, on ice, LQC level |  | recovery | 59.5% |
| C/C(N)=N/C(=N\S(=O)(=O)c1ccc(C(F)(F)F)cc1)N1C[C@H](c2ccccc2)C(c2ccc(Cl)cc2)=N1 |  | C57BL/6 mouse, muscle | intravenous, 10 mg/kg |  | half-life | 2.9 h |
| [123I]c1ccc2nc(-c3ccc(-n4ccnn4)nc3)cn2c1 |  | male Wistar rat, blood | intravenous, 4 MBq, 1 h |  | tracer uptake | 0.121 %ID/g |
| C=CC(=O)Nc1cc(Nc2nccc(-c3c[nH]c4ccccc34)n2)c(OC)cc1N(C)CCN(C)C | storage stability | human plasma | 72 h, -80 °C, low QC level |  | recovery | 95.5% |
| Cc1[nH]nc2c1N=C(c1ccccc1Cl)c1cnc(N3CCOCC3)cc1N2 | metabolic stability | dog, liver microsomes | 1 µM, pH 7.4 |  | scaled CLint | 15.9 mL/min/kg |
| C(=N\Nc1nnc(N/N=C/c2ccco2)c2ccccc12)/c1ccco1 | haemolysis | human | 10 mM, 45 min |  | haemolysis | 12.3% |
| CCCCN1C(=O)c2cccc3c(NCCCCCCCCCCN4CCOCC4)ccc(c23)C1=O |  | DMF |  |  | molar extinction coefficient | 13100 M⁻¹ cm⁻¹ |
| CCc1cnc(NC(=O)c2cc(S(=O)(=O)N3CCOCC3)ccc2N(C)C2CCCC2)s1 |  | mouse | 10 mg/kg, 3 doses |  | total protein | 5.5 g/dL |
| Cc1n[nH]c(C)c1CCCOc1cc(C(=O)NCCCCC(NC(=O)CN2CCN(CC(=O)[O-])CCN(CC(=O)[O-])CCN(CC(=O)[O-])CC2)C(=O)NCC2CCC(C(=O)NC(Cc3ccc4ccccc4c3)C(=O)NCCCCC(NC(=O)NC(CCC(=O)O)C(=O)O)C(=O)O)CC2)ccc1F.[68Ga+3] (stereo not shown) | micro-PET/CT | mouse 22Rv1 xenograft, tumour | 2 h post-injection |  | mean tumour uptake | 11.4 ± 1.16 %ID/g |
| O=C1CCC(N2Cc3cc(C(=O)O)c(F)cc3C2=O)C(=O)N1 (stereo not shown) |  | cynomolgus monkey, male | oral, 0.3 mg/kg parent drug, 0.25 h |  | plasma concentration | 0.63 ng/mL |
| Cc1c(C(N)=O)cc(Cl)c2c1O[C@@](C)([C@H]1CC[C@H](N(C)C)CC1)O2 | radiochromatography | human, urine | oral, 200 mg | baseline: dose | urinary excretion | 0.1% and 0.5% and 0.4% and 1.1% |
| CCCC[C@H](OC(C)=O)c1ccccc1C(=O)O |  | beagle dogs, both sexes, whole blood | intravenous, 5 mg/kg single dose |  | clearance | 16.8 ± 1.77 mL/min/kg |

| Compound | test | test system | conditions | how to read | measurement | result |
| --- | --- | --- | --- | --- | --- | --- |
| C=C[C@]1(C)C[C@@H](OC(=O)CSc2ccc(NC(=O)c3ccco3)cc2)[C@]2(C)[C@H](C)CC[C@]3(CCC(=O)[C@H]32)[C@@H](C)[C@@H]1O |  | M. gallisepticum-infected chickens, plasma | intramuscular, 40 mg/kg single dose |  | peripheral volume (V2/F) | 2.11 L/kg |
| O=C(Nc1cnccc1-c1ccc([18F])cc1)c1ccnc(NC(=O)C2CC2)c1 | ex vivo gamma counting | FVB/NJ mice, both sexes, right kidney | intravenous, 120 min, added: tariquidar 15 mg/kg iv |  | mean SUV | 0.92 |
| CC(C(=O)O)n1nc(Cn2cc3cc(OCC[18F])c(Cl)cc3n2)c2ccccc2c1=O (racemic) |  | rat, liver | 2 h |  | tracer uptake | 0.45 %ID/g |
| CN1CCC[C@]1(C)/C=C/S(=O)(=O)NC(=O)Nc1c2c(cc3c1CCC3)CCC2 | refers to: glucose in urine, not related | human | oral, 100 mg twice daily, 14 days, multiple ascending dose |  | subjects with adverse event | 0% |
| C=CC(=O)N1CCCC(n2c(=O)c3ncccc3n(Cc3ccc(Oc4ccccc4)cc3)c2=O)C1 (stereo not shown) |  | male BALB/c mice, plasma | oral, 200 mg/kg, 2 h |  | plasma concentration | 9020 ng/mL and 8160 ng/mL |
| CC1(C)C(/C=C/C2=C(Cl)C(=C/C=C3/N(CCCCCC(=O)O)c4ccccc4C3(C)C)/C[N+](C)(C)C2)=[N+](CCCCCC(=O)O)c2ccccc21 |  | water |  |  | molar absorption coefficient | 152000 M⁻¹ cm⁻¹ |
| O=C(Nc1cnccc1-c1ccc([18F])nc1)c1ccnc(NC(=O)C2CC2)c1 | ex vivo biodistribution, gamma counting | GSK-3β overexpressing transgenic mouse, early stage, cecum | intravenous, 120 min post-injection, added: tariquidar 15 mg/kg iv, at least 120 min before tracer |  | mean SUV | 2.46 |
| CCCCN1C(=O)c2cccc3c(NCCCCN4CCOCC4)ccc(c23)C1=O |  | DMF |  |  | molar extinction coefficient | 6700 M⁻¹ cm⁻¹ |
| C=CC(=O)Nc1cccc(Cn2ncc3cnc(Nc4cnn(CCOC)c4)nc32)c1 |  | dog, Beagle, both sexes, whole blood | 5 µM, 120 min |  | remaining compound | 45.3% |
| CN(O)C(=O)CCC(=O)NCCCN(CCCCN(CCCNC(=O)CCC(=O)N(C)O)C(=O)CCC(=O)N(C)O)C(=O)CCC(=O)N(C)O.[89Zr] |  | mouse plasma | 1 d, 37 °C |  | intact complex | 99.2 ± 0.8% |
| CCCCN1C(=O)c2cccc3c(NCCCCCN4CCOCC4)ccc(c23)C1=O |  | dioxane |  |  | molar extinction coefficient | 5600 M⁻¹ cm⁻¹ |
| CC(C)[C@H](NC(=O)[C@H](Cc1c[nH]c2ccccc12)NC(=O)[C@H](CCCNC(=N)N)NC(=O)[C@H](CCCNC(=N)N)NC(=O)[C@@H](NC(=O)[C@@H](NC(=O)[C@H](CCCNC(=N)N)NC(=O)[C@@H](NC(=O)[C@@H](NC(=O)[C@H](CCCNC(=N)N)NC(=O)[C@H](CCCNC(=N)N)NC(=O)[C@@H](NC(=O)[C@H](Cc1c[nH]c2ccccc12)NC(=O)[C@H](CCCNC(=N)N)NC(=O)[C@H](CCCNC(=N)N)NC(=O)[C@@H](NC(=O)[C@H](CCCNC(=N)N)NC(=O)[C@H](CCCNC(=N)N)NC(=O)[C@@H](NC(=O)[C@H](Cc1c[nH]c2ccccc12)NC(=O)[C@H](CCCNC(=N)N)NC(=O)[C@@H](N)CCCNC(=N)N)C(C)C)C(C)C)C(C)C)C(C)C)C(C)C)C(C)C)C(C)C)C(=O)N[C@@H](CCCNC(=N)N)C(=O)N[C@@H](CCCNC(=N)N)C(=O)O |  | CD1 mouse, plasma | intravenous, 15 mg/kg, 24 h, [14C]-labelled compound |  | blood urea nitrogen | 16.3 mg/dL |
| COc1cccc(OC)c1-c1cc(C(=O)NC2(C(=O)O)C3CC4CC(C3)CC2C4)nn1-c1ccc(C(=O)N(C)CCOCCN(C)C(=O)[C@H](CCCCNC(=O)[C@H](CC(C)C)NC(=O)C2OC2C(=O)O)NC(=O)CN2CCN(CC(=O)[O-])CCN(CC(=O)[O-])CCN(CC(=O)[O-])CC2)cc1C(C)C.[177Lu+3] (mixture of isomers) |  | mouse, HT-29 xenograft | 168 h post injection, biodistribution | baseline: tumour over brain uptake | tumour-to-brain ratio | 6.22 |
| [2H]C([2H])([18F])Oc1cc(C(=O)OCC2CCN(CCCC)CC2)ccc1N |  | rhesus monkey, NaF-inhibited plasma | baseline |  | plasma free fraction | 0.497 ± 0.03 |
| CNC(=O)C[C@H](Cc1ccc(C#N)cc1)NC(=O)c1cc(-c2ccc(CN[C@H](C)c3ccc(C)cc3)o2)ccc1Cl |  | human liver microsomes | 1 µM |  | blood clearance | 20 mL/min/kg |
| COCC1CN(C2CCN(c3cc(OC)c(Nc4ncc(Br)c(Nc5ccc6c(c5P(C)(C)=O)OCCO6)n4)cc3C)CC2)C1 |  | EGFR-mutant NSCLC patients, plasma | oral, 10 mg multiple doses, median |  | Tmax at steady state | 2.03 h |
| CC(=O)N([O-])CCCCCNC(=O)CCC(=O)N([O-])CCCCCNC(=O)CCC(=O)N([O-])CCCCCN.[89Zr+4] |  | human plasma | 7 d, 37 °C |  | intact complex | 99 ± 1.2% |

Some of these lines once more:
| Compound | test | test system | conditions | how to read | measurement | result |
| --- | --- | --- | --- | --- | --- | --- |
| CCCC[C@H](OC(C)=O)c1ccccc1C(=O)O |  | beagle dogs, both sexes, whole blood | intravenous, 5 mg/kg single dose |  | clearance | 16.8 ± 1.77 mL/min/kg |
| Cc1[nH]nc2c1N=C(c1ccccc1Cl)c1cnc(N3CCOCC3)cc1N2 | metabolic stability | dog, liver microsomes | 1 µM, pH 7.4 |  | scaled CLint | 15.9 mL/min/kg |
| C=C[C@]1(C)C[C@@H](OC(=O)CSc2ccc(NC(=O)c3ccco3)cc2)[C@]2(C)[C@H](C)CC[C@]3(CCC(=O)[C@H]32)[C@@H](C)[C@@H]1O |  | M. gallisepticum-infected chickens, plasma | intramuscular, 40 mg/kg single dose |  | peripheral volume (V2/F) | 2.11 L/kg |
